Published values from different studies.
BRD4 BD1: Bromodomain-containing protein 4, BD1 (BRD4, Homo sapiens, UniProt O60885)

For `Cc1sc2c(c1C)C(c1ccc(Cl)cc1)=N[C@@H](CC(=O)NCCN(C)CCCCNC(=O)CCCCOc1cccc3c1C(=O)N([C@H]1CCC(=O)NC1=O)C3=O)c1nnc(C)n1-2`, “onset of degradation” read 8 h (Bromodomain-containing protein 4 (BRD4, Homo sapiens, UniProt O60885); degrader, Western blot; MV4-11; 50 nM).
The ΔTm of `O=C1CCCN1c1cccc(NS(=O)(=O)c2cccc(Br)c2)c1` is reported as -0.84 °C (BRD4 BD1; thermal stability, DSF).
The inhibition of `COc1cc(-c2cn(C)c(=O)c3cnccc23)cc(OC)c1CN(C)C` is reported as -2.09% (BRD4 BD1; 1 µM).
With `CC(C)C[C@@H]1NC(=O)[C@H](Cc2ccccc2)NC(=O)CSC[C@@H](C(=O)NCC(N)=O)NC(=O)[C@H](Cc2ccc(O)cc2)NC(=O)[C@H](C(C)C)NC(=O)[C@H](Cc2ccccc2)NC(=O)[C@H](Cc2ccc(O)cc2)NC(=O)[C@H](Cc2ccccc2)NC(=O)[C@H](CC(=O)O)NC(=O)[C@H](CC(N)=O)NC(=O)[C@H](CC(N)=O)NC(=O)[C@H](Cc2ccc(O)cc2)NC(=O)[C@H](C(C)C)NC(=O)[C@H](Cc2ccccc2)NC1=O` the ΔTm was 0.46 °C (BRD4 BD1; thermal stability, DSF; 200 µM).
With `CCOc1ccc(C(C)=O)cc1NC(=O)c1cccc(C(=O)O)c1` the selectivity ratio was less than 0.02 (BRD4 BD1; binding, BROMOscan competition binding; reference: Kd CBP over Kd BRD4 bromodomain 1).
With `Cn1cc(-c2cc(N3CCCCS3(=O)=O)ccc2N[C@H]2CC[C@H](C)CC2)c2cc[nH]c2c1=O` (stereo in doubt) the remaining binding was 1.4% (Bromodomain-containing protein 4, BD2 (BRD4, Homo sapiens, UniProt O60885); binding, competition with immobilised ligand; 1 µM).
With `CC[C@H](C)[C@@H]1NC(=O)[C@H](Cc2ccc(O)cc2)NC(=O)[C@H](Cc2ccccc2)NC(=O)[C@H](C(C)C)NC(=O)[C@H](Cc2ccccc2)NC(=O)CSC[C@@H](C(=O)N[C@@H](Cc2c[nH]cn2)C(N)=O)NC(=O)[C@H](CC(N)=O)NC(=O)[C@H](Cc2c[nH]c3ccccc23)NC1=O` the ΔTm was 0.09 °C (BRD4 BD1; thermal stability, DSF; 100 µM).
With `CC(=O)N1c2ccc(-c3ccc(CNC(=O)c4cn5cc(-c6cnc(N)nc6)nc(N6CCOCC6)c5n4)cc3)cc2CC[C@@H]1C` the remaining binding was 0% (BRD4 BD1; binding, competition with immobilised ligand; 10 µM).

Excerpt of the above:
With `Cn1cc(-c2cc(N3CCCCS3(=O)=O)ccc2N[C@H]2CC[C@H](C)CC2)c2cc[nH]c2c1=O` (stereo in doubt) the remaining binding was 1.4% (Bromodomain-containing protein 4, BD2 (BRD4, Homo sapiens, UniProt O60885); binding, competition with immobilised ligand; 1 µM).
